Experimental data collected from several papers.
Each line is one published result; not all experiments were run side by side.
KRAS: GTPase KRas (KRAS, Homo sapiens, UniProt P01116)
KRAS G12D: GTPase KRas (KRAS, Homo sapiens, UniProt P01116, G12D)

SMILES | target | read-out | action | technique | setting | together with | IC50 [µM]
Cc1ncsc1-c1ccc(C(CO)NC(=O)C2CC(O)CN2C(=O)C(C(C)C)n2cc(-c3ccc(COc4c(-c5c(C)c(F)cc6[nH]ncc56)c(C5CC5)cc5c(N6CC7CC6CN7)nc(OC6CCOCC6)nc45)cc3)nn2)cc1 (stereo not shown) | GTPase KRas, with RAF (KRAS, Homo sapiens, UniProt P01116) | KRAS-RAF binding | inhibitor | TR-FRET |  | SOS | > 10
COC1CCC(Nc2nc(-c3nccn3C)nc3sc(-c4ccn(C)n4)c(-c4ccccc4)c23)C1 (stereo not shown) | GTPase KRas (KRAS, Homo sapiens, UniProt P01116, Q61H) | GTP binding | inhibitor | cell-free GTP competition |  | fluorescent GTP 100 nmol/L | 3
COc1cccc(-c2ccc(Nc3ccc(CN(C)C)cc3)c(OC)c2F)c1 | KRAS | enzyme activity | inhibitor |  |  |  | > 3000
C=CC(=O)N1CCN(c2nc(OCC34CCCN3CCC4)nc3c(F)c(-c4ccc(F)c5sc(N)nc45)c(C(F)(F)F)cc23)CC1 | GTPase KRas, GppNHp; with RAF1 RBD (KRAS, Homo sapiens, UniProt P01116, G12C) | KRAS G12C-RAF1 RBD interaction | inhibitor | HTRF | GppNHp-bound |  | 0.14
CC(C)(C)OC(=O)NCCNC(=O)c1ccc2[nH]c(/C(=N/Nc3ccc(F)cc3)c3ccc(O)cc3)nc2c1 | KRAS G12D | enzyme activity | inhibitor |  |  |  | 1270
C#Cc1cccc2cc(O)cc(-c3ncc4c(N5CC6CCC(C5)N6)nc(OCC56CCCN5CCC6)nc4c3F)c12 | KRAS G12D | target engagement in cells |  | BRET |  |  | < 0.1
C=CC(=O)N1C[C@H](C)N(c2nc(OC[C@@]34CCCN3C[C@H](F)C4)nc3c(F)c(-c4ccc(F)c5sc(N)c(C#N)c45)c(C(F)(F)F)cc23)C[C@H]1C | GTPase KRas, GTP; with RAF1 RBD (KRAS, Homo sapiens, UniProt P01116, G12C) |  | inhibitor |  |  |  | < 0.1
Cn1cnc(Cn2ccc3ccc(CNCc4[nH]c5ccccc5c4C4NC(=O)c5ccc(O)cc54)cc32)c1 (stereo not shown) | KRAS | enzyme activity | inhibitor |  |  |  | 26.9
COCCNc1nc(-c2nccn2C)nc2sc(-c3cccc(OC)c3Cl)c(-c3ccccc3)c12 | KRAS G12D | GTP binding | inhibitor | cell-free GTP competition |  | fluorescent GTP 100 nmol/L | 2.5
Nc1nc2c(-c3c(C(F)(F)F)cc4c(N5CCNCC5)nc(OCC56CCCN5CCC6)nc4c3F)ccc(F)c2s1 | GTPase KRas, with RAF1 RBD (KRAS, Homo sapiens, UniProt P01116, G12D) | KRAS G12D-RAF1 binding |  | HTRF |  |  | 1.4

For quick reference, copied from above:
SMILES | target | read-out | action | technique | setting | together with | IC50 [µM]
C=CC(=O)N1CCN(c2nc(OCC34CCCN3CCC4)nc3c(F)c(-c4ccc(F)c5sc(N)nc45)c(C(F)(F)F)cc23)CC1 | GTPase KRas, GppNHp; with RAF1 RBD (KRAS, Homo sapiens, UniProt P01116, G12C) | KRAS G12C-RAF1 RBD interaction | inhibitor | HTRF | GppNHp-bound |  | 0.14
